Assay results gathered from unrelated publications.
Protocols differ between the studies behind these lines. Several values in a cell are separate wells, animals, samples, runs or records. ± gives the spread as reported.

| Substance | organism | assay | test system | conditions | how to read | measurement | result |
| --- | --- | --- | --- | --- | --- | --- | --- |
| CCCCCCCCCCCCCCC[C@@H](O)[C@H](CO)NC(=O)NCCCC[C@H](NC(=O)[C@H](CC(C)C)NC(=O)[C@@H](NC(=O)[C@H](CCCNC(=N)N)NC(=O)[C@H](C)NC(=O)[C@H](CCC(N)=O)NC(=O)[C@H](CC(C)C)NC(=O)[C@H](CCC(N)=O)NC(=O)[C@H](CCCCN)NC(=O)[C@@H](NC(=O)CNC(=O)[C@H](Cc1c[nH]c2ccccc12)NC(=O)[C@@H](NC(=O)[C@@H](NC(=O)[C@H](CC(C)C)NC(=O)[C@H](CCC(N)=O)NC(=O)[C@H](CC(C)C)NC(=O)[C@@H](N)CC(C)C)[C@@H](C)O)C(C)C)[C@@H](C)CC)[C@@H](C)CC)C(N)=O | HIV-1 HXB2 | viral infectivity, luciferase reporter | TZM-bl |  |  | IC50 | 287 ± 143 nM |
| COCCN1CCn2cc(C(=O)NCc3ccc(F)cc3F)c(=O)c(O)c2C1=O | human immunodeficiency virus 1 | single-round vector infection | integrase G140S/Q148H |  |  | EC50 | 431 ± 36.7 nM |
| Cc1nc([C@H](NC(=O)c2ccc(-c3ccc(Cl)cc3)[nH]2)[C@H]2CCCCN2)sc1CO | HIV-1 | viral replication | MT-2, IIIB |  |  | IC50 | 800 nM and ≥ 800 nM |
| COCCCCCCN1CCn2cc(C(=O)NCc3ccc(F)cc3F)c(=O)c(O)c2C1=O | human immunodeficiency virus 1 | single-round vector infection | integrase G118R |  |  | EC50 | 15.6 ± 4.1 nM |
| CNCc1ccc2c(c1)N(C(=O)OCc1c(F)c(F)c(F)c(F)c1F)[C@H](CNC(=N)N)[C@H]2NC(=O)C(=O)Nc1ccc(Cl)c(F)c1 | HIV-1 AD8 Env E64G/S375N | viral infection |  |  |  | IC50 | < 75000 nM and 40000 nM |
| CC[C@H](C)[C@H](NC(=O)[C@H](CCC(N)=O)NC(=O)[C@H](CCC(=O)O)NC(C)=O)C(=O)N[C@@H](Cc1c[nH]c2ccccc12)C(=O)N[C@@H](CC(N)=O)C(=O)N[C@@H](CC(N)=O)C(=O)N[C@@H](CCSC)C(=O)N[C@H](C(=O)N[C@@H](Cc1c[nH]c2ccccc12)C(=O)N[C@@H](CCSC)C(=O)N[C@@H](CCC(=O)O)C(=O)N[C@@H](Cc1c[nH]c2ccccc12)C(=O)N[C@@H](CC(=O)O)C(=O)N[C@@H](CCCNC(=N)N)C(=O)N[C@@H](CCC(=O)O)C(=O)N[C@H](C(=O)N[C@@H](CC(N)=O)C(=O)N[C@@H](CC(N)=O)C(=O)N[C@@H](Cc1ccc(O)cc1)C(=O)N[C@H](C(=O)N[C@@H](CO)C(=O)N[C@@H](CC(C)C)C(=O)N[C@H](C(=O)N[C@@H](Cc1c[nH]cn1)C(=O)N[C@@H](CO)C(=O)N[C@@H](CC(C)C)C(=O)N[C@H](C(=O)N[C@@H](CCC(=O)O)C(=O)N[C@@H](CCC(=O)O)C(=O)N[C@@H](CO)C(=O)N[C@@H](CCC(N)=O)C(N)=O)[C@@H](C)CC)[C@@H](C)CC)[C@@H](C)O)[C@@H](C)CC)[C@@H](C)O | HIV-1 NL4-3 | viral infection, SEAP reporter | CEMx174 SEAP reporter cells | 3 days |  | IC50 | 26.5 nM |
| [O-][N+]1=C(c2ccccc2)C2=NCCCN2c2ncccc21 | Bacteroides thetaiotaomicron | microbial growth | ATCC29148 |  |  | MIC | ≤ 0.06 µg/mL |
| CC(C)CC(C)N1CCn2cc(C(=O)NCc3ccc(F)cc3F)c(=O)c(O)c2C1=O (stereo not shown) | human immunodeficiency virus 1 | single-round vector infection | integrase N155H |  |  | EC50 | 10 ± 0.7 nM |
| Cc1cc(C#N)cc(C)c1Oc1nc(NC2CCN(Cc3ccncc3)CC2)nc2ccccc12 | HIV-1 GH9 | viral replication | TZM-bl, K101P/K103N/V108I |  |  | EC50 | 142 ± 35.1 nM |
| CC(C)CC(C)n1ccn2cc(C(=O)NCc3ccc(F)cc3F)c(=O)c(O)c2c1=O (stereo not shown) | human immunodeficiency virus 1 | single-round vector infection | integrase R263K |  |  | EC50 | 6.8 ± 0.4 nM |
| CNCc1ccc2c(c1)N(C(=O)OCc1ccccc1)[C@H](CNC(=N)N)[C@H]2NC(=O)C(=O)Nc1ccc(Cl)c(F)c1 | HIV-1 AD8 Env E64G/I424T | viral infection |  |  |  | IC50 | 40000 nM and < 75000 nM |
| COc1ccc2c(c1)OCCCC=CCCCCN(CC(O)C(Cc1ccccc1)NC(=O)OC1COC3OCCC13)S2(=O)=O (mixture of isomers) | HIV-1 | viral replication | PHA-stimulated PBMCs, HIV-1MDR/B X4 multidrug-resistant |  |  | IC50 | 89 ± 16 nM |
| [O-][N+]1=C(Cc2ccccc2)C2=NCCCN2c2ccccc21 | Bacteroides thetaiotaomicron | microbial growth | ATCC29148 |  |  | MIC | 2 µg/mL |
| ivermectin | human adenovirus C5 | reporter gene | A549 | 1 µM, 72 h, with: digitoxin | reference: DMSO control | viral replication | 71.9 ± 10.2% |
| CC(C)N1CCn2cc(C(=O)NCc3ccc(F)cc3F)c(=O)c(O)c2C1=O | human immunodeficiency virus 1 | single-round vector infection | integrase R263K |  |  | EC50 | 5.2 ± 0.8 nM |
| Cc1cc(/C=C/C#N)cc(C)c1Nc1nc(Nc2ccc(C#N)cc2)ncc1N | HIV-1 | viral replication, single-round infection | RT mutant M230L |  |  | EC50 | 4 ± 2 nM |
| C[N+]1=C2C(c3ccccc3)=[N+]([O-])c3ccccc3N2CCC1 | Bacteroides thetaiotaomicron | microbial growth | ATCC29148 |  |  | MIC | 2 µg/mL |
| CC[C@H](C)[C@H](NC(=O)[C@H](CCCCN)NC(=O)[C@H](Cc1ccc(O)cc1)NC(=O)[C@H](CCC(N)=O)NC(=O)[C@H](Cc1c[nH]cn1)NC(=O)[C@@H](NC(=O)[C@H](Cc1ccccc1)NC(=O)[C@H](Cc1c[nH]cn1)NC(=O)[C@@H](NC(=O)[C@@H](NC(=O)CNC(=O)[C@H](CCCNC(=N)N)NC(=O)[C@H](Cc1c[nH]c2ccccc12)NC(=O)[C@H](CC(C)C)NC(=O)[C@H](CO)NC(=O)[C@H](CCC(=O)O)NC(=O)[C@H](CC(C)C)NC(=O)[C@H](CCC(=O)O)NC(=O)[C@H](CC(N)=O)NC(=O)[C@H](CC(C)C)NC(=O)[C@H](CC(=O)O)NC(=O)[C@H](CO)NC(=O)[C@H](CCC(=O)O)NC(=O)[C@@H](NC(=O)[C@H](CC(C)C)NC(=O)[C@H](CCC(N)=O)NC(=O)[C@H](CCC(=O)O)NC(=O)[C@H](CCC(=O)O)NC(=O)[C@H](CC(C)C)NC(=O)[C@@H]1CCCN1C(=O)[C@@H](N)Cc1ccccc1)[C@@H](C)O)[C@@H](C)O)[C@@H](C)O)C(C)C)C(=O)N[C@@H](CCSC)C(=O)N1CCC[C@H]1C(=O)N[C@@H](Cc1ccccc1)C(=O)N[C@@H](CCCNC(=N)N)C(=O)N[C@@H](CCCCN)C(=O)N[C@@H](CC(C)C)C(=O)N[C@H](C(=O)N[C@@H](Cc1ccccc1)C(=O)N[C@@H](CCCCN)C(=O)N[C@@H](CCCNC(=N)N)C(=O)N[C@@H](CCCNC(=N)N)C(=O)N[C@@H](CCCCN)C(=O)N[C@@H](CC(N)=O)C(N)=O)C(C)C | Candida albicans | ATP luminescence | FH2173 | 48 h |  | MIC | > 50 µM |
| O=C(NCc1ccc(F)cc1F)c1cn2ccn(CCCCCCO)c(=O)c2c(O)c1=O | human immunodeficiency virus 1 | single-round vector infection | integrase R263K |  |  | EC50 | 6 ± 0.6 nM |
| Cc1cc(/C=C/C#N)cc(C)c1-n1cnc2cnc(Nc3ccc(C#N)cc3)nc21 | HIV-1 | viral replication, single-round infection | RT mutant K101E/M184I |  |  | EC50 | 0.5 ± 0.3 nM |
| CCCOC(=O)N1c2cc(CNC)ccc2[C@H](NC(=O)C(=O)Nc2ccc(Cl)c(F)c2)[C@H]1CNC(=N)N | HIV-1 AD8 Env E64G/S375N | viral infection |  |  |  | IC50 | 60000 nM and < 75000 nM |
| O=C(NCc1ccc(F)cc1F)c1cn2c(c(O)c1=O)C(=O)N(CCCCO)CC2 | human immunodeficiency virus 1 | single-round vector infection | integrase R263K |  |  | EC50 | 110 ± 17.3 nM |
| [O-][N+]1=C(c2ccc(Cl)cc2)C2=NCCCCN2c2ccccc21 | Bacteroides thetaiotaomicron | microbial growth | ATCC29148 |  |  | MIC | 1 µg/mL |
| COCCCN1CCn2cc(C(=O)NCc3ccc(F)cc3F)c(=O)c(O)c2C1=O | human immunodeficiency virus 1 | single-round vector infection | integrase N155H |  |  | EC50 | 6.9 ± 1 nM |
| COc1ccc(C2=[N+]([O-])c3ccccc3N3CCN=C23)cc1 | Bacteroides thetaiotaomicron | microbial growth | ATCC29148 |  |  | MIC | ≤ 0.06 µg/mL |

A few entries again:
| Substance | organism | assay | test system | conditions | how to read | measurement | result |
| --- | --- | --- | --- | --- | --- | --- | --- |
| CC[C@H](C)[C@H](NC(=O)[C@H](CCC(N)=O)NC(=O)[C@H](CCC(=O)O)NC(C)=O)C(=O)N[C@@H](Cc1c[nH]c2ccccc12)C(=O)N[C@@H](CC(N)=O)C(=O)N[C@@H](CC(N)=O)C(=O)N[C@@H](CCSC)C(=O)N[C@H](C(=O)N[C@@H](Cc1c[nH]c2ccccc12)C(=O)N[C@@H](CCSC)C(=O)N[C@@H](CCC(=O)O)C(=O)N[C@@H](Cc1c[nH]c2ccccc12)C(=O)N[C@@H](CC(=O)O)C(=O)N[C@@H](CCCNC(=N)N)C(=O)N[C@@H](CCC(=O)O)C(=O)N[C@H](C(=O)N[C@@H](CC(N)=O)C(=O)N[C@@H](CC(N)=O)C(=O)N[C@@H](Cc1ccc(O)cc1)C(=O)N[C@H](C(=O)N[C@@H](CO)C(=O)N[C@@H](CC(C)C)C(=O)N[C@H](C(=O)N[C@@H](Cc1c[nH]cn1)C(=O)N[C@@H](CO)C(=O)N[C@@H](CC(C)C)C(=O)N[C@H](C(=O)N[C@@H](CCC(=O)O)C(=O)N[C@@H](CCC(=O)O)C(=O)N[C@@H](CO)C(=O)N[C@@H](CCC(N)=O)C(N)=O)[C@@H](C)CC)[C@@H](C)CC)[C@@H](C)O)[C@@H](C)CC)[C@@H](C)O | HIV-1 NL4-3 | viral infection, SEAP reporter | CEMx174 SEAP reporter cells | 3 days |  | IC50 | 26.5 nM |
